# Assay results collected from several papers.
# Compare with care: the assays were run in different laboratories.
# Technique: SRB
SMILES,cell line,observed,time,setting,GI50 [µM]
Cc1c(C)c2c(c(C)c1OCc1ccccc1)CCC(C)(C(=O)NN=C1C(=O)Nc3ccccc31)O2 (stereo not drawn),MCF7,cell growth or viability,48 h,,45.9
NS(=O)(=O)c1ccc(Nc2nc(OCC3CCCCC3)c3nc[nH]c3n2)cc1,HT-29,cell growth or viability,72 h,,13
COc1ccc(N(C)c2nc(Cl)ccc2CO)cc1,human tumour cell panel,cell growth,,"range over compounds, cells",0.2 to 3.25
C#C[C@@]1(O)[C@@H](CO)O[C@@H](n2cc(Br)c3c(N)ncnc32)[C@@H]1O,LOX IMVI,cell growth or viability,48 h,,0.067
CCC(C)Oc1nc(N)nc(N)c1C#N (stereo not drawn),HT-29,cell growth or viability,72 h,,> 100
CCOC(=O)c1ccc(C(F)(F)F)nc1N(C)c1ccc(OC)cc1,human tumour cell panel,cell growth,,"range over compounds, cells",0.19 to 1.81
Cc1c(C)c2c(c(C)c1O)CCC(C)(C(=O)NN=C1C(=O)Nc3ccc(F)cc31)O2 (stereo not drawn),MCF7,cell growth or viability,48 h,,62.7
C#C[C@@]1(O)[C@@H](CO)O[C@@H](n2cc(Cl)c3c(N)ncnc32)[C@@H]1O,DU-145,cell growth or viability,48 h,,0.134
COCc1ccc(C(F)(F)F)nc1N(C)c1ccc(OC)cc1,human tumour cell panel,cell growth,,"range over compounds, cells",0.2 to 3.25

# Some of these lines once more:
SMILES,cell line,observed,time,setting,GI50 [µM]
C#C[C@@]1(O)[C@@H](CO)O[C@@H](n2cc(Br)c3c(N)ncnc32)[C@@H]1O,LOX IMVI,cell growth or viability,48 h,,0.067
